Published values from different studies.
Every numbered part comes from another study and shows a few of its results, in no order.

Block 1
Target: RING finger protein unkempt homolog, zinc fingers 1-6, GST-SBP tag (UNK, Homo sapiens, UniProt Q9C0B0, residues 30-357)
Technique: RNA Bind-n-Seq
Molecule type: RNA
Sample: in vitro
Tested at: not given
Setting: RNA with constant flanks, human and mouse sites, ends assumed
Relative to: input RNA pool
Reading: higher = stronger binding
Measurement: bound/input enrichment
Shared flanks, not repeated: GGGAGUUCUACAGUCCGACGAUC … CAACAGAGGAUUGAGCAUCA
Residues (chain): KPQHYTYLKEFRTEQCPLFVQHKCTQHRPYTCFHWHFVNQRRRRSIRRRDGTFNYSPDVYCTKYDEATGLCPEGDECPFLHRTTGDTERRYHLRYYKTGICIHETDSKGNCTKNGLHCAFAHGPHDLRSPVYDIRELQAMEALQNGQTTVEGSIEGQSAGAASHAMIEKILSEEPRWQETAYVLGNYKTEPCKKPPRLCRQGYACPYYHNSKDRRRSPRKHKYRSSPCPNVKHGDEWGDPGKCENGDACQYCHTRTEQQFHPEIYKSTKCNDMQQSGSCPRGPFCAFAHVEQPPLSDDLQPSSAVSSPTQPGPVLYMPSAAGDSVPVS
Strand = GAGUGAAGGACUGUAAUCAUAAUAUGCUCACUACUUGCUCUUGUUUUUGUUUUAAUAAACUAUAGUAGUGUUUUAAAAAGUUAAAUGAAGAAUAAACGCAAAUAUAAAAGCUCUGAUUUU; value = 0.305 ratio
Strand = ACACAUCCUACCUUUGAUGAGUCUCACAUCCCACCUUCCUAUAAACAGCUAAAUUAAUUUUGUUUCAUCUUCCCCAGACCAAAAUGUUUGAUAAUCUUAUCAACAUUGUGGGAGGUCUUG; value = 0.225 ratio
Strand = AGCCCAAAUCAUGCGGUGGUGCACGGCAACCUGGCUUGUGUGUACUACGAGCAAGGCCUAAUAGACCUGGCCAUUGAUACCUACAGGAGAGCUAUCGAACUGCAACCCCAUUUCCCCGAU; value = 0.0677 ratio
Strand = UUGUCCUAUGAUGCUAUUAUCAUAGACUAAUGACAUUUAUCUUCAAAACACCAAAUUGUCUUUAGAAAAAUUAAUGUGAUUACAGGUAGAGGCCUUCUAGGUGAGACACUUUUAAGGUAC; value = 0.798 ratio
Strand = GAUCUUGGACUGGACAUUGGUGCCCAGGGAGAAGCCCUUGGAUAUCGCCAGGAUGAUCCCAGCUACCGUUCUUUUCACUCUGGUGGAUACGGCCAGGAUGCCUUGGGGAUGGACCCUAUG; value = 0.0939 ratio
Strand = GGAAGAAAACCAGAUUUUUAGCCUUCUUGCCAAAUCCAGACCUCUGGUUGAUUUUUCUUUGACAGAAGAUGCAAGUUAUUUUCCAAUUUCACAAUUAAAUGUAUUUAACCUGAACAUUAU; value = 1.6 ratio
Strand = AAAAAAAAAGCUGAACAGCUGCAGAGGAAGACACGUUAUACCCUAACCAUCUUGGAUGCUGGGCUUUGUUAUGCUGUAAUUCAUAAGGCUCUGUUUUAUCAGAGAUUAUGGAGCAAGAAA; value = 0.106 ratio
Strand = CCUCCUCCAUCGAGGGAGAGGCCUGAAGGGACUGCCUACUGCAGCUCGUUGCCAAUCACAUAGCUUUCUAUUUGUUAAGUAUAAAUUUAAAUUUAAAAUCACUUUUUUAACGAAUGGGGG; value = 0.563 ratio
Strand = GCCGUCAGGCUACACGAGCGAGGCGAUGCGUCUAAGGAAGACAUCGAUACAGCGAUGAAGCUGGGAGCUGGGUAUCCCAUGGGUCCGUUUGAGCUUCUUGACUAUGUUGGACUGGAUACU; value = 0.165 ratio
Strand = GACAUCCCACUGUUUCCAGUGCAGUCCAAGUACAUGGAUGUGGUCAAGGAGCGGAUCCGUCUAGCCCGACAGAUUGAAAAAGCUGAAUACCGGAACUUCCAGGCUUGUCUGCACAACUCA; value = 0.0874 ratio
Strand = AAGACGAAGCUGGACACUCUAGCCACUGGUCAUCUCUUCCAGGAAGUGAGGUGCAUGAAACUAGUGCAGCACCCCAACAUUGUGCGUCUCUAUGAAGUCAUAGACACCCAGACCAAACUU; value = 0.119 ratio

Block 2
Target: Prothrombin, mature alpha-thrombin (F2, Homo sapiens, UniProt P00734)
Technique: aptamer microarray, sandwich
Molecule type: DNA with 2'F-ANA
Sample: in vitro
Tested at: 200 nM
Setting: whole 15-mer aptamer, many near background
With: Cy3 exosite-II aptamer, 400 nM
Reading: higher = stronger binding
Measurement: mean fluorescence intensity
Strand: GGTTGGTGTGGTTGG
Modification = 2'F-ANA at 1 2 5 8; value = 64 a.u.
Modification = 2'F-ANA at 5 6 9 13 15; value = 53.4 a.u.
Modification = 2'F-ANA at 1 3 4 5 6 8 10 11 14 15; value = 49.3 a.u.
Modification = 2'F-ANA at 1 2 4 5 7 10 11 12 13 14; value = 46.5 a.u.
Modification = 2'F-ANA at 1 4 5 7 8 10 14; value = 46.4 a.u.
Modification = 2'F-ANA at 1 2 5 6 7 10 11 12 15; value = 54 a.u.
Modification = 2'F-ANA at 1 2 4 8 9 11 13 14 15; value = 58 a.u.
Modification = 2'F-ANA at 1 2 3 5 8 9 10 11 13 15; value = 48.1 a.u.
Modification = 2'F-ANA at 1 3 4 6 12 13 15; value = 245 a.u.
Modification = 2'F-ANA at 1 2 5 6 7 8 11 12 13; value = 79.1 a.u.
Modification = 2'F-ANA at 1 2 5 7 9 11 12 15; value = 88.3 a.u.
Modification = 2'F-ANA at 3 5 7 9 10 12 14; value = 76.3 a.u.
Modification = 2'F-ANA at 2 5 6 7 8 13 15; value = 87.9 a.u.
Modification = 2'F-ANA at 1 5 6 8 10 13 14 15; value = 48.9 a.u.
Modification = 2'F-ANA at 4 7 8 9 11 12 14; value = 123 a.u.
Modification = 2'F-ANA at 3 6 7 9 11 12 13 15; value = 962 a.u.
Modification = 2'F-ANA at 1 4 5 6 7 8 13 14 15; value = 51.7 a.u.
Modification = 2'F-ANA at 1 3 4 6 7 9 11 12; value = 267 a.u.
Modification = 2'F-ANA at 2 5 6 9 15; value = 69.4 a.u.
Modification = 2'F-ANA at 1 2 5 8 11 12 14; value = 47.9 a.u.
Modification = 2'F-ANA at 2 3 4 5 7 8 9 15; value = 117 a.u.

Block 3
Target: Histone acetyltransferase KAT6A, winged helix 1, GST fusion (KAT6A, Homo sapiens, UniProt Q92794, residues 1-85)
Technique: protein binding microarray
Molecule type: double-stranded DNA, one strand shown
Sample: in vitro
Tested at: not given
Setting: 8-mer, flanks averaged, mean of 2 arrays, mostly near background
Relative to: not given
Reading: higher = stronger binding
Measurement: E-score
Residues (chain): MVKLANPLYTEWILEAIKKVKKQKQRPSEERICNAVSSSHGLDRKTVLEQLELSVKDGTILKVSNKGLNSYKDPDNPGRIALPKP
Strand = ATCGATCA; value = -0.191
Strand = AGGAAAAG; value = -0.1
Strand = ACAGAAAA; value = -0.0578
Strand = ACTTGACG; value = 0.0627
Strand = ACCGTTAT; value = 0.0113
Strand = ATCGACTC; value = -0.245
Strand = GAAACTCC; value = -0.0234
Strand = CTTGTTAC; value = -0.102
Strand = AATGTTGC; value = -0.0494
Strand = CACTTCTA; value = -0.222
Strand = ACTTACGA; value = -0.135
Strand = GCTTCGCC; value = 0.228
Strand = ACGGGTAT; value = 0.25
Strand = GTTGATAA; value = -0.111
Strand = CCAAGGCA; value = -0.171
Strand = CATGATAG; value = -0.127
Strand = AAAGCCTT; value = -0.126
Strand = ATAGGAAC; value = -0.149
Strand = ATACGGCA; value = 0.297
Strand = GGTTTAAC; value = 0.0446
Strand = ATAGATGA; value = -0.187
Strand = ATTTCTAA; value = -0.12
Strand = ATTTCAAA; value = -0.18
Strand = ACGTACAC; value = -0.165
Strand = CTCCATCC; value = -0.114

Block 4
Target: RNA binding protein fox-1 homolog 2, RRM domain, GST-SBP tag (RBFOX2, Homo sapiens, UniProt O43251-10, residues 100-194)
Technique: RNA Bind-n-Seq
Molecule type: RNA
Sample: in vitro
Tested at: 365 nM
Setting: natural RNA segment, single round, ends assumed
Relative to: no-protein control
Reading: higher = stronger binding
Measurement: RBNS enrichment (R)
Shared flanks, not repeated: GGGAGUUCUACAGUCCGACGAUC … UGGAAUUCUCGGGUGCCAA
Target sequence (chain): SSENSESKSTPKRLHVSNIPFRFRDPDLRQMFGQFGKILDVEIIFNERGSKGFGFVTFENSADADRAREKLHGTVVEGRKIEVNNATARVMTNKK
Strand = ACAGGCAUCUUAGAUAUUGCAGUUUCUCCUGCUAUUCACUAGAAAGAAGGCUUGGCUUUCUUGACUUUCUUGCAUAAGAGUGAAAUACUCCUUACCCAGGGUAUCAUAGU; value = 0.378
Strand = UGUGCCUGCUCUCUGCUCCUGUUCUUUCCCUCCCAUACCUGGCUGCUGUGAGGACACUCACCUUGUUCUGGCUUCAGCUGCUAGCCUACCCACAUCUCAGCGCUUUCCCC; value = 1.39
Strand = UUAGCAAGCUCUUUGUGCAGAUGGGGAUGUAGGUAAAUCUUUUUAAAAGUGAAAUUAACCUCCUGCCAAUUUUACAACCCAAGAAUUUUUUUUUAAGGGCCUUGGAGCCA; value = 0.392
Strand = GCUCAACAAAGCACAUCUUCACCACGCUCCAUCCGGACAACUCCAGUCUUGCCAACAAGUGCCAAAUAUCUGAGGAACCCAGGAACCCAGGGGAUCCCUUCCCCCAAGCC; value = 0.633
Strand = AGCAUCCUUGGUCAUCAUUGUCUCCUUCCCACCUGGCCCAGAGAUGCUUAAAUCCAAGUUGUUUCUCCAGCUGUCACCUCCCCCAGGAGAUCAGGAUUCCACUGACGUCC; value = 0.506
Strand = CUCUGGCUGCAGAGUUGAGGUUGGACUCUGGAGUGGAUGGUGGAGAUGAGGCACAGUGGAGAGAAAGCUGGGCUAGGCCAUUGAAAUAGAGGCUGGGUUUUUUAAUAAGA; value = 0.989
Strand = UAGUAAGUCCAUGCCUUCAAUAGGAUUAGAGCCAACUUCAGGAUUCUGGAAUGUUAGGAAGAGCAGCUGAGACUUCUAUCCUGAUAGAAUAAAACAACUGCCUGAUUCUA; value = 0.43
Strand = GGAAAUAAUUUGAGUUGAUUCAGAAAUCCUGGCAUGUGACAAUUUUGUUAAAUUACCAAGUUUGGUUUUUAAUAAUUUCUCAAUAUUAUGCGCCAAGAUCUAAUUUUAAA; value = 0.775
Strand = CACACCUGGGGUGCUCGGGGGUAGGGCUGCCAUGCUGCAGAGCUGAUGGAGUGAUGUUGUGGGCACAAGGCAUCUGUCAGCUGCCUCCUUUAACAGCCAUGCCUUCUGGA; value = 0.489
Strand = CAAUGUUCGUCUCUGCCCUGAUGCUGCCUCAGGAUCCCCCAUUCCCCACCCUGGGAGAUGAGGGGGUCCCCAUGUGCUUUUCCAGUUCUUCUGGAAUUGGGGGACCCCCG; value = 0.283
Strand = UCUGCCAAGUUGGCCCUCCCUGCUCUCGAGUGUUCCUUUCUUGAGACCUCAGGGUGCCCAGGUCCUGCAUCUCUCUAUUGCCCCACUUCCUGCUAUAAUCCCUGAUGAAA; value = 0.772
Strand = GAAUUCUUGAUAAAUGGCUAAUGCUUUUCUCUCACACUGCUAAUCUUUGGAUGGAAACCAUUCUUUAUAUUGAUGGACAGUUUUCAGAAAACUAUCAACAGGUGUACAAG; value = 0.235

Some of these lines once more (block 1):
Strand = GAUCUUGGACUGGACAUUGGUGCCCAGGGAGAAGCCCUUGGAUAUCGCCAGGAUGAUCCCAGCUACCGUUCUUUUCACUCUGGUGGAUACGGCCAGGAUGCCUUGGGGAUGGACCCUAUG; value = 0.0939 ratio
Strand = GAGUGAAGGACUGUAAUCAUAAUAUGCUCACUACUUGCUCUUGUUUUUGUUUUAAUAAACUAUAGUAGUGUUUUAAAAAGUUAAAUGAAGAAUAAACGCAAAUAUAAAAGCUCUGAUUUU; value = 0.305 ratio
Strand = CCUCCUCCAUCGAGGGAGAGGCCUGAAGGGACUGCCUACUGCAGCUCGUUGCCAAUCACAUAGCUUUCUAUUUGUUAAGUAUAAAUUUAAAUUUAAAAUCACUUUUUUAACGAAUGGGGG; value = 0.563 ratio
Strand = AGCCCAAAUCAUGCGGUGGUGCACGGCAACCUGGCUUGUGUGUACUACGAGCAAGGCCUAAUAGACCUGGCCAUUGAUACCUACAGGAGAGCUAUCGAACUGCAACCCCAUUUCCCCGAU; value = 0.0677 ratio
Strand = GGAAGAAAACCAGAUUUUUAGCCUUCUUGCCAAAUCCAGACCUCUGGUUGAUUUUUCUUUGACAGAAGAUGCAAGUUAUUUUCCAAUUUCACAAUUAAAUGUAUUUAACCUGAACAUUAU; value = 1.6 ratio
Strand = ACACAUCCUACCUUUGAUGAGUCUCACAUCCCACCUUCCUAUAAACAGCUAAAUUAAUUUUGUUUCAUCUUCCCCAGACCAAAAUGUUUGAUAAUCUUAUCAACAUUGUGGGAGGUCUUG; value = 0.225 ratio
Strand = GCCGUCAGGCUACACGAGCGAGGCGAUGCGUCUAAGGAAGACAUCGAUACAGCGAUGAAGCUGGGAGCUGGGUAUCCCAUGGGUCCGUUUGAGCUUCUUGACUAUGUUGGACUGGAUACU; value = 0.165 ratio
